{"data": "Assay results of several laboratories", "note": "Compare with care: the assays were run in different laboratories. Numbers after ± are the reported error."}
{"Molecule": "Cc1cc(/C=C/C#N)cc(C)c1Oc1nc(NC2CCN(Cc3ccc(P(C)(C)=O)cc3)CC2)nc2ccsc12", "tested on": "Human immunodeficiency virus 1", "assay": "viral replication", "test system": "MT-4, L100I mutant", "how to read": "reference: doravirine EC50 over compound EC50", "endpoint": "potency ratio", "result": "~4.7 fold"}
{"Molecule": "20-methyl spirolide G", "tested on": "nicotinic acetylcholine receptor (Torpedo marmorata)", "assay": "binding", "conditions": "together with: biotin-α-bungarotoxin", "endpoint": "Hill slope", "result": "0.93 ± 0.06"}
{"Molecule": "NC12CC3CC(CC(C3)C1)C2", "tested on": "Influenza A virus", "assay": "viral replication, plaque size reduction", "test system": "MDCK, A/Swine/Iowa/10-0628/2010 (H3N2)", "endpoint": "EC50", "result": "> 100 µM"}
{"Molecule": "C#CC(=O)Nc1ccc([As]2SCCS2)cc1", "tested on": "RKO", "assay": "cell viability, MTS", "endpoint": "IC50", "result": "0.79 ± 0.05 µM"}
{"Molecule": "Pillar[6]MaxQ", "assay": "host-guest binding, isothermal titration calorimetry", "test system": "20 mM sodium phosphate buffer", "conditions": "pH 7.4, together with: mephedrone", "endpoint": "Kd", "result": "0.0524 µM"}
{"Molecule": "AEOL 10150", "assay": "Fluoro-Jade B staining", "test system": "rat, status epilepticus, hippocampal hilus", "conditions": "sc, 7 mg/kg every 4 h, 24 h, from 5 min post-SE", "endpoint": "neurodegeneration", "result": "no effect"}
{"Molecule": "Nc1ccc([As]2SCCS2)cc1", "tested on": "RKO", "assay": "cell viability, MTS", "endpoint": "IC50", "result": "3.74 ± 0.88 µM"}
{"Molecule": "13,19-didesmethyl spirolide C", "tested on": "nicotinic acetylcholine receptor (Torpedo marmorata)", "assay": "binding", "conditions": "methanol standard, together with: biotin-α-bungarotoxin 80 nM", "endpoint": "IC50", "result": "0.0031 ± 0.00123 µM"}
{"Molecule": "C[C@H](NP(=O)(Nc1ccn([C@H]2CS[C@@H](COP(=O)(N[C@@H](C)C(=O)OCc3ccccc3)N[C@@H](C)C(=O)OCc3ccccc3)O2)c(=O)n1)N[C@@H](C)C(=O)OCc1ccccc1)C(=O)OCc1ccccc1", "tested on": "L1210 TK-deficient", "assay": "cell proliferation", "conditions": "2 d", "endpoint": "IC50", "result": "> 250 µM"}
{"Molecule": "CN1CC[C@]23c4c5ccc(O)c4O[C@H]2[C@@H](O)C=C[C@H]3[C@H]1C5", "assay": "hyperlocomotion", "test system": "C57BL/6J male mice", "conditions": "subcutaneous, dose not given", "endpoint": "maximal distance traveled", "result": "~20000 cm"}
{"Molecule": "pinnatoxin G", "tested on": "nicotinic acetylcholine receptor (Torpedo marmorata)", "assay": "binding", "conditions": "together with: biotin-α-bungarotoxin 80 nM", "endpoint": "Ki", "result": "0.0052 ± 0.00133 µM"}
{"Molecule": "C[C@H](NP(=O)(Nc1ccn([C@H]2CS[C@@H](CO)O2)c(=O)n1)N[C@@H](C)C(=O)OCc1ccccc1)C(=O)OCc1ccccc1", "tested on": "L1210 TK-deficient", "assay": "cell proliferation", "conditions": "2 d", "endpoint": "IC50", "result": "150 ± 18 µM"}
{"note": "A few entries again:"}
{"Molecule": "C[C@H](NP(=O)(Nc1ccn([C@H]2CS[C@@H](COP(=O)(N[C@@H](C)C(=O)OCc3ccccc3)N[C@@H](C)C(=O)OCc3ccccc3)O2)c(=O)n1)N[C@@H](C)C(=O)OCc1ccccc1)C(=O)OCc1ccccc1", "tested on": "L1210 TK-deficient", "assay": "cell proliferation", "conditions": "2 d", "endpoint": "IC50", "result": "> 250 µM"}
{"Molecule": "20-methyl spirolide G", "tested on": "nicotinic acetylcholine receptor (Torpedo marmorata)", "assay": "binding", "conditions": "together with: biotin-α-bungarotoxin", "endpoint": "Hill slope", "result": "0.93 ± 0.06"}
